Assay results of several laboratories.
Every numbered part comes from another study and shows a few of its results, in no order. Changes are numbered by the printed parent chain.

Set 1 — target: CCND1, cyclin fold, Cln2 fusion (human); technique: yeast growth competition, sequencing; sample: yeast; notes: weak parent motif; reference: not given; reading: higher = stronger binding; measurement: normalised enrichment score
Starting sequence: PKMYT1 docking peptide (human); SFEPRNLLSLFED; partner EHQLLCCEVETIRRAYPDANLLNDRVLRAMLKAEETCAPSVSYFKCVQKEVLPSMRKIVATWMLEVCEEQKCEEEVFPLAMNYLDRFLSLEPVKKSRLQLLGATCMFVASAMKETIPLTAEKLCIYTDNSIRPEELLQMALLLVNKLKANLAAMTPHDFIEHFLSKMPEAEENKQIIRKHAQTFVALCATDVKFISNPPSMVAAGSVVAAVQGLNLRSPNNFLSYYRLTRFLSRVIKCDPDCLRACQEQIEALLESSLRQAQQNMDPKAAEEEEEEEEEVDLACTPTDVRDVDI
Variant = SFEPRNLLSLFAD [E12A]; result = 1.19
Variant = SFEPRTLLSLFED [N6T]; result = 1.22
Variant = SFEPRNLLSLLED [F11L]; result = 0.766
Variant = QFEPRNLLSLFED [S1Q]; result = 0.289
Variant = SFEPRNLLSQFED [L10Q]; result = 1.31
Variant = SFEPRNLLSLFRD [E12R]; result = 0.632
Variant = SFEPRNLLSLYED [F11Y]; result = 1.3
Variant = SFEPRNLLCLFED [S9C]; result = 1.02
Variant = SFEPRNLLSLCED [F11C]; result = 0.882
Variant = SFEPRNLLSLFND [E12N]; result = 1.56
Variant = SFEPRNLLSHFED [L10H]; result = 1.07
Variant = SFQPRNLLSLFED [E3Q]; result = 0.537
Variant = SFEPRNLLMLFED [S9M]; result = 1.11
Variant = SFEPRNLLSLFDD [E12D]; result = 0.998
Variant = SFEPRNLLSGFED [L10G]; result = 1.5
Variant = SFEPRVLLSLFED [N6V]; result = 1.21
Variant = SFEPRNKLSLFED [L7K]; result = 1.38
Variant = SFEPRNLLSSFED [L10S]; result = 0.93
Variant = SFEPRNLKSLFED [L8K]; result = 1.05
Variant = SFENRNLLSLFED [P4N]; result = 0.913
Variant = SFEPRNLLTLFED [S9T]; result = 0.478
Variant = YFEPRNLLSLFED [S1Y]; result = -0.377
Variant = SFEPRNDLSLFED [L7D]; result = 0.941
Variant = SFEPRNCLSLFED [L7C]; result = 1.42
Variant = SFEPRNLDSLFED [L8D]; result = 0.0158

Set 2 — technique: protein binding microarray; form: double-stranded DNA, one strand shown; sample: in vitro; tested at: not given; reference: not given; reading: higher = stronger binding; measurement: E-score
Target: Histone acetyltransferase KAT6A, winged helix 1, GST fusion (KAT6A, Homo sapiens, UniProt Q92794, residues 1-85)
Notes: 8-mer, flanks averaged, mean of 2 arrays, mostly near background
Construct (chain): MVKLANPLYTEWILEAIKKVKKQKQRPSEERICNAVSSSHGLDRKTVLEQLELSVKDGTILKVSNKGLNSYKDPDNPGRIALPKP
Strand = CGACGAAA; result = -0.252
Strand = AACCTCTG; result = -0.107
Strand = GTTGGGTA; result = -0.12
Strand = ACAGTAGT; result = -0.0863
Strand = AGTTGCTA; result = -0.0664
Strand = ACCCTTGC; result = -0.0628
Strand = AGTAAAAA; result = -0.0839
Strand = AGCGCAGC; result = 0.313
Strand = ACGACAGG; result = -0.0926
Strand = AAGAAAAC; result = -0.0711
Strand = ACGACCTG; result = -0.0149
Strand = ATTTAGTG; result = -0.183
Strand = CATCCAGG; result = -0.222
Strand = CTGTCTTA; result = 0.0637
Strand = GCCGAGAA; result = 0.243
Strand = AATAAACC; result = -0.0735
Strand = AGACCATA; result = -0.106
Strand = AGTCCGAA; result = 0.0207
Strand = TAACTCAA; result = -0.127

Set 3 — technique: RNA Bind-n-Seq; form: RNA; sample: in vitro; tested at: not given; notes: RNA with constant flanks, ends assumed; reference: input RNA pool; reading: higher = stronger binding; measurement: bound/input enrichment
Target: RING finger protein unkempt homolog, zinc fingers 1-6, GST-SBP tag (UNK, Homo sapiens, UniProt Q9C0B0, residues 30-357)
Residues (chain): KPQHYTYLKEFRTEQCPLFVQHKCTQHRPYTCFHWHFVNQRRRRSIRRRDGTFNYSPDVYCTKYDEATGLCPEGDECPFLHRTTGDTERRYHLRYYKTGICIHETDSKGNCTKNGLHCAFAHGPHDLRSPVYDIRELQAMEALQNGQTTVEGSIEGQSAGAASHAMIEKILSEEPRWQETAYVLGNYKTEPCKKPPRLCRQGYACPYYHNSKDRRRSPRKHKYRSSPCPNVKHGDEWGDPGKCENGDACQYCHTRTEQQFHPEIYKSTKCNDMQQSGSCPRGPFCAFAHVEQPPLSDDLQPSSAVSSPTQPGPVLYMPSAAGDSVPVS
Strand = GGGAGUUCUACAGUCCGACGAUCUAAGCCCGGAGCCCGGCGCUUUCCCCGCAAGAUGGACGGUUUCGCCGGCAGUCUCGAUGACCGUAUUUCUGCUGCAAGUACUUCUGAUGUUCAAGAUCGCCUGUCAGCUCUUGAGUCACGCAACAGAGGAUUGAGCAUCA; result = 0.0846 ratio
Strand = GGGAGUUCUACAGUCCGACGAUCCCAGUUGUAUACAAAUACCUAACAGAGAAAGCAGUAAAAUGGUCACAGCAGGUUGAACGUCACCGAGAACAUCUCAUUAACUACAUUAUAUUUUUGAGAAUAACACCAUUUCUGCCUAAUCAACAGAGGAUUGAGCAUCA; result = 1.57 ratio
Strand = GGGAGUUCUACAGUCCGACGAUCAUUAUCACAGAAGAACCUGAGAUUGGCAAUAUAGAAAAACCAGUAGAAAUUUUUCAUAUAACCGAACAUUUUUGUCUUGGUAGAAGACGCCUUCAUCUCUUUGGGAGAGAUAGCACUAUCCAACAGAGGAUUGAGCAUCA; result = 1.52 ratio
Strand = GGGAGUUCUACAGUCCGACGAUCAAGCAACUUAUGGAAACAACUACAGAAUUUACAAAAAAGCUUCGGUGUUUACUUGCCUGGCAACCGCAUUGGGAUUUUAUAGAUUCUGGAAGUAGUAUUAAUGCUCAUCCUGCUGUGGCUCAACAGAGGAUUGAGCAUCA; result = 0.838 ratio
Strand = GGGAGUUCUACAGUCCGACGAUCGAAAAUAUAUUUAGUCGCAUAGUAGAUAUACAUGAACUUAGUGUAAAGUUACUGGGCCAUACCGAAGAUACAGUAGAAAUGACAGAUGAAGGCAGUCCCCAUCCACUAGUAGGAAGCUGCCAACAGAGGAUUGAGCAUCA; result = 1.5 ratio
Strand = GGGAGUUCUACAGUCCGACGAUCCGUAGAGGGACAGAGAGCUUAGAUCACCUUGCUGGUCUUUCUCAUUAUUACCAUGCUGAUACCCGCUACAGACAUUUUCCAAAAUCUGAGAAGUAUAGCAUCAGUAGACUCACACUUGAACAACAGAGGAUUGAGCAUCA; result = 0.163 ratio
Strand = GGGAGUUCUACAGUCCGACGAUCAUAUAUAUACACACACACAUAUAUAUAUUUAGAAACGUGAGUGUUAAAGAUAGAAUUUGUUUCCGGACAAAUUUUAAGAAAAUGUGGGAAUACCAAAUGUCCUUUAUAAGAAAAAUAAAUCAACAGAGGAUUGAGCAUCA; result = 0.716 ratio
Strand = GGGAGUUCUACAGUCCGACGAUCUUUAGUGACUAUGGUAAGCUUUUGUUGAUUUGUUUCAGACUUUUUUCUCCUGUAAAAAAACCGUACUGAUUAACUUUUUUAAAAGAAAGAUUUUACUGUAAAUAUGGAUUUUUUUUUUUGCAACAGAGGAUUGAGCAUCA; result = 1.81 ratio

Set 4 — technique: RNA Bind-n-Seq; form: RNA; sample: in vitro; tested at: 365 nM; reference: no-protein control; reading: higher = stronger binding; measurement: RBNS enrichment (R)
Target: RNA binding protein fox-1 homolog 2, RRM domain, GST-SBP tag (RBFOX2, Homo sapiens, UniProt O43251-10, residues 100-194)
Notes: natural RNA segment, single round, ends assumed
Residues (chain): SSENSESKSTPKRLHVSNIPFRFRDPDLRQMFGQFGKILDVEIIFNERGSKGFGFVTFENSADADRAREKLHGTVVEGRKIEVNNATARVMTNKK
Strand = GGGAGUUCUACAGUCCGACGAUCAUGGCUCUGUGUGGAGUGCAGUAGACAUCAGGGACAGACAAAGGCUGUUAGAGAGUGCCAUGAGUGGAAAAUACCUGCACGAUGACUUCGCCCUGCCCUGCCCACCGGGGUGGAAUUCUCGGGUGCCAA; result = 4.8
Strand = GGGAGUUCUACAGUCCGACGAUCGUGGGUGAGGGUCUGCCUGCCUGUUUCUGUCUGGGUGUCUGAGUUCCAAAAAAUGUGUGUUGUUUGUUCCUCCUCAUCCUCUUCUGAGACUGUUGUUUUUUUAGAGCUUGUGGAAUUCUCGGGUGCCAA; result = 1.92
Strand = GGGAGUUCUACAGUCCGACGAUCAUAAGUAGGCAGGUAAUCUUCAUGGGGACUGAGGUGAUUUUCUUGUACGUUUUACGUUUUCCUAUUUACCAGUGGGGUUUUGCUGUAGCCUGUGUAACUCUGCUCUGAGGUGGAAUUCUCGGGUGCCAA; result = 1.13
Strand = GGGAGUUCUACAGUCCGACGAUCAGAAAAAUGACCUGACCCUGUAGAGAGAACACAGUGUGAAUGUUUCCCCUCGUGUGAGCCCAGCCUGUGGUCUUCUCCGUACCCGCAACGUGGUCAUCUGUGCCCGUGACUGGAAUUCUCGGGUGCCAA; result = 0.35
Strand = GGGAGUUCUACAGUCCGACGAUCCUAUUUAUCUUCAGGGUCACUCUGGGCAAAGAGAAGGUCCUCAGCCAUGCCCCCAGCACCUUGCACAUAGGUGUCUGAUAAAAGUUUAAGAAAGUAAACACUUUUUGAGCUGGAAUUCUCGGGUGCCAA; result = 0.249
Strand = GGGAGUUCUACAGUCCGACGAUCUGGAGCCUUUGAGCAUGGUACGUGCUUACCUUUUUGUCUUGCUUUAGGCUAAUAAUAAUAAUAAAAAACCAAAAGGCAUCUUGUUGUGAUUUCUAUGCCAACAUCCUGCCUGGAAUUCUCGGGUGCCAA; result = 0.49
Strand = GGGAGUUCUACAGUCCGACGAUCAAACACACUGUACAUGUUGUGAACAAGCUUUCAUAGGUUUAUUAUAUUUGAUAUUUUUUUACUCGAGAAAGAACAUCUUUUUCCAUGAACAUCUGCAGCAGUUCACACGGUGGAAUUCUCGGGUGCCAA; result = 0.404
Strand = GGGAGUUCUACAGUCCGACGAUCAGCCUGCCAGUCAGCGAUGUUGAGGAGGCUCUCGUGGGCUGCCUGCGCCACUCACCCUCAGUGUCCUUCCGUGAGGCUUCUCGCCAAAGAUGAUAGAGGGUGAAUGAUCUUGGAAUUCUCGGGUGCCAA; result = 0.164
